# Results gathered from unrelated publications.
# Lines come from different studies, so protocols differ. ± marks the error that the study gave.
SMILES,test,test system,conditions,how to read,measurement,result
Cc1cc(O)cc(O)c1C(=O)c1c2c3c(c(O)cc(C)c3oc1=O)C(=O)c1c(O)cc(O)cc1-2,,"KM mouse male, plasma","intraperitoneal, 15 mg/kg",,CL/F,11 mL/min/kg
CCCCN1C(=O)c2cccc3c(NCCCCCCN4CCOCC4)ccc(c23)C1=O,,aqueous medium,pH 6,,average fluorescence lifetime,4.2 ns
O=C([O-])CN1CCN(CC(=O)[O-])CCN(CC(=O)NCC2CCC(C(=O)NC(Cc3ccc4ccccc4c3)C(=O)NCCCCC(NC(=O)NC(CCC(=O)O)C(=O)O)C(=O)O)CC2)CCN(CC(=O)[O-])CC1.[44Sc+3] (stereo not shown),transchelation stability,,"0.5 h, 37 °C, added: EDTA 10 mM",,intact complex,96.7 ± 0.1%
O=[11C](OC(C(F)(F)F)C(F)(F)F)N1CCC(CNS(=O)(=O)c2ccc(Cl)cc2)CC1,PET,"Sprague-Dawley rat, pons",intravenous,,uptake,1.25 SUV
O=C(NCCCN(CCCCN(CCCNC(=O)c1cccc(=O)n1[O-])C(=O)c1cccc(=O)n1[O-])C(=O)c1cccc(=O)n1[O-])c1cccc(=O)n1[O-].[89Zr+4],radio-TLC,PBS,"7 d, pH 7.4, 37 °C, added: Co^2+ 10-fold excess",,intact complex,98.9 ± 1.6%
CC(C)[C@H](CO)Nc1nc(Nc2ccc(C(=O)NCCNS(=O)(=O)c3cccc4c(N(C)C)cccc34)c(Cl)c2)c2ncn(C(C)C)c2n1,,"mouse, prostate","intraperitoneal, 20 mg/kg",,Tmax,4 h
COCC1CN(C2CCN(c3cc(OC)c(Nc4ncc(Br)c(Nc5ccc6c(c5P(C)(C)=O)OCCO6)n4)cc3C)CC2)C1,,human,"oral, 10 to 240 mg once daily, safety set, all grades",,patients with weight loss,14.8%
NCCCC(=O)OCC(=O)c1ccc(O)c(C(F)(F)F)c1,pump-probe transient absorption,water,,,triplet lifetime,0.39 ns
CCC(=O)N[C@@H](C)C(=O)OCC(=O)N[C@@H](C)C(=O)O,,water,"pH 7, 50 °C",,depolymerization half-life,14.1 h
C#CC(C)NC(=O)C(CC(C)(C)F)NC(c1ccc(-c2ccc(S(C)(=O)=O)cc2)cc1)C(F)(F)F (stereo not shown),LC-MS UV trace,aqueous buffer,"concentration not given, 23 h, pH 7.5, 37 °C, added: cysteine 10 mM",,cysteine adduct formation,< 1%
C[C@H](Oc1cc(-c2cnn(C3CCN(CC[18F])CC3)c2)cnc1N)c1c(Cl)ccc(F)c1Cl,PET imaging,"nude mouse, muscle","iv, 10 min post injection",,tracer uptake,2.3 ± 0.8 %ID/cc
COc1cc2c(cc1OC)CN(CCCCn1ccc3cc(OCC[18F])ccc31)C2,,"ICR mice, male, small intestine","intravenous, 15 min",,uptake,12.4 ± 0.25 %ID/organ
O=C(CCCCC[N+]#[C][99Tc-5]([C]#[N+]CCCCCC(=O)N[C@H]1C(O)O[C@H](CO)[C@@H](O)[C@@H]1O)([C]#[N+]CCCCCC(=O)N[C@H]1C(O)O[C@H](CO)[C@@H](O)[C@@H]1O)([C]#[N+]CCCCCC(=O)N[C@H]1C(O)O[C@H](CO)[C@@H](O)[C@@H]1O)([C]#[N+]CCCCCC(=O)N[C@H]1C(O)O[C@H](CO)[C@@H](O)[C@@H]1O)[C]#[N+]CCCCCC(=O)N[C@H]1C(O)O[C@H](CO)[C@@H](O)[C@@H]1O)N[C@H]1C(O)O[C@H](CO)[C@@H](O)[C@@H]1O (stereo partly shown),biodistribution,BALB/c nude mouse U87 MG xenograft,2 h,baseline: tumour over muscle,tumour/muscle ratio,4.02 ± 0.42
[11CH3]c1ccc2nc(C3CCC3)n(-c3ccc4[nH]ncc4c3)c2n1,extrapolated from mouse biodistribution,"human female, osteogenic cells",,,absorbed dose,3.6 µSv/MBq
CCCC[C@H](NC(=O)CNC(=O)CNC(=O)CN1CCN(CC(=O)O)CCN(CC(=O)O)CCN(CC(=O)O)CC1)C(=O)N[C@H]1CC(=O)NCCCC[C@@H](C(N)=O)NC(=O)[C@H](Cc2c[nH]c3ccccc23)NC(=O)[C@H](CCCNC(=N)N)NC(=O)[C@@H](Cc2ccccc2)NC(=O)[C@H](Cc2c[nH]cn2)NC1=O [gallium-67 labelled],,"female C57 mice, B16/F1 melanoma","intravenous, 0.037 MBq, 4 h",baseline: tumour over liver,tumour to tissue ratio,29.7
CCCC[C@H](NC(=O)[C@H](CCC(=O)O)NC(=O)CNC(=O)CN1CCN(CC(=O)O)CCN(CC(=O)O)CCN(CC(=O)O)CC1)C(=O)N[C@H]1CC(=O)NCCCC[C@@H](C(N)=O)NC(=O)[C@H](Cc2c[nH]c3ccccc23)NC(=O)[C@H](CCCNC(=N)N)NC(=O)[C@@H](Cc2ccccc2)NC(=O)[C@H](Cc2c[nH]cn2)NC1=O [indium-111 labelled],,"C57 mouse, female, B16/F1 melanoma, urine","intravenous, 0.037 MBq, 0.5 h",,urinary excretion,83.56 ± 0.49%
CC(=O)N[C@H](C)c1cc(Cl)ccc1Cn1c(=S)[nH]c(=O)c2[nH]ccc21,,"Sprague-Dawley rat, female, plasma","oral, 125 mg/kg/day",baseline: rat over human 10 mg,exposure ratio,1
N=C(N)NCCC[C@@H]1NC(=O)[C@H](Cc2c[nH]c3ccccc23)NC(=O)[C@@H](CC2CCCCC2)NC(=O)[C@@H]2CCCN2C(=O)[C@@H](NC(=O)CCc2ccccc2)CCCNC1=O,,"C57BL/6J mice, plasma","subcutaneous, 1 mg/kg",,elimination half-life,0.332 h
COc1cc(NC(C)=O)c2c(c1O)-c1c(OC)c(OC)cc3c1C(C2)N(C)CC3 (stereo not shown),,rat kidney homogenate,"0.5 µg/mL, 24 h, room temperature, post-preparative storage",,remaining compound,90.6 ± 1.6%
C=Cc1ccc([C@H]2C[C@@]3(C)[C@@H](CC[C@@]3(O)C(F)(F)C(F)(F)F)[C@@H]3CCC4=CC(=O)CCC4=C32)cc1,,human liver microsomes,100 % absorption assumed,,maximal oral bioavailability,31%
C[n+]1c(/C=C/c2ccc(N(c3ccccc3)c3ccccc3)cc2)cc(/C=C2\Sc3ccccc3N2CCCN2CCCC2)c2ccccc21,,"Sprague-Dawley rat, female, plasma","intravenous, 1.5 mg/kg, 2 h",,compound remaining in plasma,~56%
CCOc1ccc2c(c1)C(C)=CC(C)(C)N2c1cc(OCC)cc2c1NC(C)(C)C=C2C,liver steatosis and necrosis increase,male BALB/c mice,"oral, diet, 90 days",,effective dose,> 10 mg/kg bw/day
CCCC[C@@H]1NC(=O)[C@@H](NC(=O)[C@H](CCC(=O)O)NC(=O)CNC(=O)CN2CCN(CC(=O)O)CCN(CC(=O)O)CCN(CC(=O)O)CC2)CCCCNC(=O)C[C@@H](C(N)=O)NC(=O)[C@H](C(C)C)NC(=O)[C@@H]2CCCN2C(=O)[C@H](CCCNC(=N)N)NC(=O)CNC(=O)[C@H](Cc2c[nH]c3ccccc23)NC(=O)[C@H](CCCNC(=N)N)NC(=O)[C@@H](Cc2ccccc2)NC(=O)[C@H](Cc2c[nH]cn2)NC(=O)[C@H](CCC(=O)O)NC1=O [gallium-67 labelled],,"C57 mice with B16/F1 melanoma, pancreas","intravenous, 0.037 MBq, 0.5 h",,tissue uptake,0.47 ± 0.07 %ID/g
CN1CCC[C@]1(C)/C=C/S(=O)(=O)NC(=O)Nc1c2c(cc3c1CCC3)CCC2,,"human, plasma","oral, 100 mg single dose",,CL/F,1.1 L/h
N#Cc1nc(N2CCOCC2)nc(N(Cc2ccc(F)cc2)CC2CCCNC2)n1 (stereo not shown),,female CD-1 mice,"intraperitoneal, 10 mg/kg, 4 h",,brain concentration,16.6 ng/g
Cc1ccc(OCC(=O)O)cc1,,"Sprague-Dawley rat, female, plasma","oral gavage, 10 mg/kg of parent drug",,t1/2,1.23 h
COC1C=COC2(C)Oc3c(C)c(O)c4c(c3C2=O)C2=NC3(CCN(CC(C)C)CC3)NC2=C(NC(=O)C(C)=CC=CC(C)C(O)C(C)C(O)C(C)C(OC(=O)c2cccnc2)C1C)C4=O (stereo not shown),,"CD-1 mouse female, plasma","oral, 10 mg/kg",,fAUC/MIC ratio,50
NC[C@@H](C(=O)Nc1ccc(-c2cn[nH]c2)cc1)c1ccccc1,OECD 405 eye irritation,"New Zealand White rabbit, eye","topical, 0.1%, 96 h (day 5), scale 0 to 4",direction not given,cornea score,0

# A few entries again:
SMILES,test,test system,conditions,how to read,measurement,result
CN1CCC[C@]1(C)/C=C/S(=O)(=O)NC(=O)Nc1c2c(cc3c1CCC3)CCC2,,"human, plasma","oral, 100 mg single dose",,CL/F,1.1 L/h
N#Cc1nc(N2CCOCC2)nc(N(Cc2ccc(F)cc2)CC2CCCNC2)n1 (stereo not shown),,female CD-1 mice,"intraperitoneal, 10 mg/kg, 4 h",,brain concentration,16.6 ng/g
